Measurements from different studies.
Each line is one published result; not all experiments were run side by side.
Organism: Enterococcus faecalis

Compound = CNC(CC(C)C)C(=O)NC1C(=O)NC(CC(N)=O)C(=O)NC2C(=O)NC3C(=O)NC(C(=O)NC(C(=O)NCCCCCCNC(=N)N)c4cc(O)cc(O)c4-c4cc3ccc4O)C(O)c3ccc(c(Cl)c3)Oc3cc2cc(c3OC2OC(CO)C(O)C(O)C2OC2CC(C)(N)C(O)C(C)O2)Oc2ccc(cc2Cl)C1O (stereo not drawn); test = broth microdilution; system = BM 4166 VanA; MIC = 16 µg/mL
Compound = O=[N+]([O-])c1ccc2c(c1)C=[N+]1N3C(=[O+][Cu-2]1([Cl])[O]2)c1ccccc1NC3c1cc([N+](=O)[O-])ccc1O (stereo not drawn); test = broth microdilution; system = ATCC 29213; conditions = 24 h; MIC = 256 µg/mL
Compound = CNC(CC(C)C)C(=O)NC1C(=O)NC(CC(N)=O)C(=O)NC2C(=O)NC3C(=O)NC(C(=O)NC(C(=O)NC(CCCNC(N)=O)C(=O)OC)c4cc(O)cc(O)c4-c4cc3ccc4O)C(O)c3ccc(c(Cl)c3)Oc3cc2cc(c3OC2OC(CO)C(O)C(O)C2OC2CC(C)(N)C(O)C(C)O2)Oc2ccc(cc2Cl)C1O (stereo not drawn); test = broth microdilution; system = BM 4166 VanA; MIC = 63 µg/mL
Compound = Cc1csc(NCc2cc(N(C)C)c3c(c2O)C(=O)C2=C(O)[C@]4(O)C(=O)C(C(N)=O)=C(O)[C@@H](N(C)C)[C@@H]4C[C@@H]2C3)n1; system = JH2-2(pMV158), Tet L efflux; MIC = 4 µg/mL
Compound = CNC(CC(C)C)C(=O)NC1C(=O)NC(CC(N)=O)C(=O)NC2C(=O)NC3C(=O)NC(C(=O)NC(C(=O)NCCNC(=N)N)c4cc(O)cc(O)c4-c4cc3ccc4O)C(O)c3ccc(c(Cl)c3)Oc3cc2cc(c3OC2OC(CO)C(O)C(O)C2OC2CC(C)(N)C(O)C(C)O2)Oc2ccc(cc2Cl)C1O (stereo not drawn); test = broth microdilution; system = ATCC BAA-2573 VanA; MIC = 8 µg/mL
Compound = CCCCCCSCC1OC(OC2C(N)CC(N)C(OC3OC(CN)C(O)CC3N)C2O)C(O)C(N)C1O (stereo not drawn); system = ATCC 29212; MIC = > 150 µg/mL
Compound = CC1=C[C@@]2(C)C(=C(C)[C@H]3[C@@H]4C[C@H](C)C[C@H](C)[C@H]4[C@H]4Oc5ccc(cc5)C[C@]5(O)NC(=O)[C@]6(O[C@H]65)C(=O)[C@@H]2[C@@H]43)[C@H]1C; test = microbial growth, broth dilution; system = ATCC29212; MIC = 6.3 µM
Compound = CN(C)c1cc(CNCc2ccncc2)c(O)c2c1C[C@H]1C[C@H]3[C@H](N(C)C)C(O)=C(C(N)=O)C(=O)[C@@]3(O)C(O)=C1C2=O; test = microbial growth, broth dilution; MIC = 2 µg/mL
Compound = C/C(=N/NC(=N)N)c1nnn(-c2ccc(C#CC(C)(C)O)cc2)c1C; test = microbial growth, broth dilution; system = ATCC51299; MIC = 16 µg/mL
Compound = CN(C)c1cc(CN2CCc3ccccc3C2)c(O)c2c1C[C@H]1C[C@H]3[C@H](N(C)C)C(O)=C(C(N)=O)C(=O)[C@@]3(O)C(O)=C1C2=O; system = JH2-2(pMV158), Tet L efflux; MIC = 0.5 µg/mL
Compound = CNC(CC(C)C)C(=O)NC1C(=O)NC(CC(N)=O)C(=O)NC2C(=O)NC3C(=O)NC(C(=O)NC(C(=O)NC(CCCNC(=N)N)C(N)=O)c4cc(O)cc(O)c4-c4cc3ccc4O)C(O)c3ccc(c(Cl)c3)Oc3cc2cc(c3OC2OC(CO)C(O)C(O)C2OC2CC(C)(N)C(O)C(C)O2)Oc2ccc(cc2Cl)C1O (stereo not drawn); test = broth microdilution; system = BM 4166 VanA; MIC = 16 µg/mL
Compound = CCN(CC)CCCN1/C(=C/c2cc(C)[n+](C)c3ccccc23)Sc2ccccc21; test = microbial growth, broth dilution; system = ATCC29212; MIC = 32 µg/mL
Compound = CN(C)c1cc(CNCC2CCCCC2)c(O)c2c1C[C@H]1C[C@H]3[C@H](N(C)C)C(O)=C(C(N)=O)C(=O)[C@@]3(O)C(O)=C1C2=O; test = microbial growth, broth dilution; MIC = 1 µg/mL
Compound = COc1cc(Cc2cnc(N)nc2N)cc(/C=C/C(=O)N2N=Cc3ccccc3C2Cc2ccc(C)cc2)c1OC (stereo not drawn); test = microbial growth, broth dilution; system = ATCC29212; MIC = 0.5 to 1 µg/mL
Compound = Oc1c(Br)cc(Br)c2nc3c(C(F)(F)F)cc(C(F)(F)F)cc3nc12; test = microbial growth, broth dilution; system = OG1RF; MIC = 0.2 µM
Compound = COc1c(CC=C(C)C)c(O)cc2c1[C@@H]1Oc3c(ccc(O)c3CC=C(C)C)[C@@H]1CO2; system = ATCC 29212; MIC = 128 µg/mL
Compound = CNC(CC(C)C)C(=O)NC1C(=O)NC(CC(N)=O)C(=O)NC2C(=O)NC3C(=O)NC(C(=O)NC(C(=O)NC(CCCNC(=N)N)C(=O)OC)c4cc(O)cc(O)c4-c4cc3ccc4O)C(O)c3ccc(c(Cl)c3)Oc3cc2cc(c3OC2OC(CO)C(O)C(O)C2OC2CC(C)(N)C(O)C(C)O2)Oc2ccc(cc2Cl)C1O (stereo not drawn); test = broth microdilution; system = ATCC BAA-2573 VanA; MIC = 4 µg/mL
Compound = COc1cc(Cc2cnc(N)nc2N)cc(/C=C/C(=O)N2N=Cc3ccccc3C2c2ccccc2)c1OC (stereo not drawn); system = ATCC 29212; conditions = racemate; MIC = 0.06 to 0.125 µg/mL
Compound = CCc1[nH]c(C(=O)N[C@@H]2CCN(c3nnc(C(C)(C)O)s3)C[C@@H]2OC)nc1Cl; system = ATCC 51575; MIC = 0.5 µg/mL
Compound = CC(C)C(O)C(NC(=O)[C@H](Cc1ccc(O)cc1)NC(=O)C(Cc1ccc(O)c(Cl)c1)[N+](C)(C)C)C(=O)N[C@@H](C)C(=O)O (stereo partly drawn); test = CLSI broth microdilution; system = ATCC 19433; MIC = > 100 µM
Compound = CN(C)c1cc(CN)c(O)c2c1C[C@H]1C[C@H]3[C@H](N(C)C)C(O)=C(C(N)=O)C(=O)[C@@]3(O)C(O)=C1C2=O; test = microbial growth, broth dilution; MIC = 4 µg/mL
Compound = CC1=C[C@@H](C)[C@H]2[C@@H]3C(=O)C(Cl)(Cl)C(=O)[C@H](C)C(=O)O[C@@H](C)/C=C/C=C\[C@@H](C)[C@@H]3C=C[C@@H]2C1; test = microbial growth, broth dilution; MIC = 0.025 µg/mL
Compound = COc1cc(Cc2cnc(N)nc2N)cc(/C=C/C(=O)N2N=Cc3ccccc3C2c2ccc(C)cc2)c1OC (stereo not drawn); test = microbial growth, broth dilution; system = ATCC29212; MIC = 0.25 µg/mL
Compound = C[n+]1ccn(CC([O-])c2ccccc2)[c]1[Ag-][I].[Na+] (stereo not drawn); test = broth dilution; system = ATCC 19433; conditions = 18 h, 37 °C; MIC = 10 µg/mL
Compound = COc1cc(Cc2cnc(N)nc2N)cc(/C=C/C(=O)N2N=Cc3ccccc3C2CCC(F)(F)F)c1OC (stereo not drawn); test = microbial growth, broth dilution; system = ATCC29212; MIC = 0.03 to 0.125 µg/mL
Compound = COC(Cn1ccn(C)[c]1=[Ag][O]C(C)=O)c1ccccc1 (stereo not drawn); test = broth dilution; system = ATCC 19433; conditions = 18 h, 37 °C; MIC = 20 µg/mL
Compound = N#Cc1ccc2cccc(O)c2n1; test = microbial growth, agar dilution; system = ATCC29212; MIC = > 1500 µM
Compound = COc1cc(Cc2cnc(N)nc2N)cc(/C=C/C(=O)N2N=Cc3ccccc3C2Cc2ccccc2)c1OC (stereo not drawn); test = microbial growth, broth dilution; system = ATCC29212; MIC = 0.5 µg/mL
Compound = C[n+]1ccc(/C=C2\Sc3ccccc3N2CCCN2CCCC2)c2ccccc21; test = microbial growth, broth dilution; system = ATCC29212; MIC = 32 µg/mL
Compound = Oc1c(Cl)cc(Cl)c2cccnc12; test = microbial growth, agar dilution; system = ATCC29212; MIC = 37.4 µM
Compound = CN(C)c1cc(CN2CCCCCC2)c(O)c2c1C[C@H]1C[C@H]3[C@H](N(C)C)C(O)=C(C(N)=O)C(=O)[C@@]3(O)C(O)=C1C2=O; test = microbial growth, broth dilution; MIC = 1 µg/mL
Compound = CC(=NNC(=N)N)c1nnn(-c2ccc(C#CC3(O)CCCCC3)cc2)c1C; test = microbial growth, broth dilution; system = ATCC51299; MIC = 8 µg/mL
Compound = CN(C)c1cc(CN2CCCCC2)c(O)c2c1C[C@H]1C[C@H]3[C@H](N(C)C)C(O)=C(C(N)=O)C(=O)[C@@]3(O)C(O)=C1C2=O; test = microbial growth, broth dilution; MIC = 0.25 µg/mL
Compound = COc1cc(Cc2cnc(N)nc2N)cc(/C=C/C(=O)N2N=Cc3ccccc3C2Cc2ccc(OC(F)(F)F)cc2)c1OC (stereo not drawn); test = microbial growth, broth dilution; system = ATCC29212; MIC = 1 µg/mL
Compound = CN(C)c1cc(CNC(=O)OCC(C)(C)C)c(O)c2c1C[C@H]1C[C@H]3[C@H](N(C)C)C(O)=C(C(N)=O)C(=O)[C@@]3(O)C(O)=C1C2=O; system = JH2-2(pMV158), Tet L efflux; MIC = 2 µg/mL
Compound = COc1cc(Cc2cnc(N)nc2N)cc(/C=C/C(=O)N2N=Cc3ccccc3C2C=C(C)C)c1OC (stereo not drawn); system = ATCC 29212; conditions = added: folinic acid 0.1 µg/mL; MIC = 0.125 to 0.25 µg/mL

Repeated from above:
Compound = CN(C)c1cc(CN2CCCCC2)c(O)c2c1C[C@H]1C[C@H]3[C@H](N(C)C)C(O)=C(C(N)=O)C(=O)[C@@]3(O)C(O)=C1C2=O; test = microbial growth, broth dilution; MIC = 0.25 µg/mL
Compound = COc1cc(Cc2cnc(N)nc2N)cc(/C=C/C(=O)N2N=Cc3ccccc3C2Cc2ccc(OC(F)(F)F)cc2)c1OC (stereo not drawn); test = microbial growth, broth dilution; system = ATCC29212; MIC = 1 µg/mL
Compound = CN(C)c1cc(CNC(=O)OCC(C)(C)C)c(O)c2c1C[C@H]1C[C@H]3[C@H](N(C)C)C(O)=C(C(N)=O)C(=O)[C@@]3(O)C(O)=C1C2=O; system = JH2-2(pMV158), Tet L efflux; MIC = 2 µg/mL
